Experimental data of several laboratories.
Several values in a cell are separate wells, animals, samples, runs or records. ± marks the error that the study gave. In brackets after ≈: the same amount, converted by molar mass.

For `CCC(CC)[C@@H]1COC[C@H](c2ccc(C(C)(C)C)cc2)N1`, the logD was over 4.7 (shake-flask, 1-octanol/buffer; pH 7.4).
`CS(=O)(=O)c1ccc(NC(=O)CSc2nnc(-c3ccccc3F)n2-c2ccccc2)cc1` has a logD of 1.69 (octanol/buffer; pH 7.4).
For `[O]=[Co].[O]=[Co][O][Co]=[O]`, the cobalt concentration was 6340 µg/L (rat, male, urine, 24-h collection; oral gavage, single, 300 mg/kg (220 mg Co/kg), day 1, vehicle 0.5% HPMC).
`Cc1ccc(C(=O)N(CCCN)C(c2nc3snc(C)c3c(=O)n2Cc2ccccc2)C(C)C)cc1` (centres unmarked) — result for “patients with adverse event”: 0% (mucosal inflammation grade ≥3 (CTCAE); human patients; intravenous, 2 mg/day).
For `COc1ccc(CNc2nc(-c3ccc(C(=O)O)cc3)nc3c2c2ccccc2n3C)cc1Cl`, the body weight was 24.3 g and 23.7 g and 25.2 g and 21.1 g (NSG mice; dose not given, day 4).
`CN(C)C/C=C/C(=O)Nc1cc2c(Nc3ccc(F)c(Cl)c3)ncnc2cc1O[C@H]1CCOC1`: “GSH adduct formation” 94% (PBS; 100 µM, 23 h, pH 7.45, 37 °C, together with: GSH 5 mM).
For `NC1(C(=O)N[C@@H](CCO)c2ccc(Cl)cc2)CCN(c2nc[nH]c3nccc2-3)CC1`, “likelihood of AE-led dose modification” read 58.7% (human patients aged >=sample A years; 400 mg).
For `CN(CCC(=O)O)C(=O)c1ccc2c(c1)CC[C@@H]1[C@@H]2CC[C@]2(C)C(c3cncc(F)c3)=CC[C@@H]12`, “direct bilirubin change” read 0.15 mg/dL (premenopausal women with endometriosis pain, serum; 60 mg twice daily, end of treatment, completers, median; relative to: baseline).
`CC(C)n1c(Nc2cccnc2)nc2cnc(Nc3ccc(N4CCN(C)CC4)cc3)nc21`: “subjects with TEAE” 2.4% (refers to: LDL cholesterol increased; healthy human, male; oral, dose not given, CTCAE grade 1-3).
For `O=C(Nc1nc2cccc(-c3ccc(CN4CCS(=O)(=O)CC4)cc3)n2n1)C1CC1`, “treatment-emergent adverse events” read 0% (refers to: pain in extremity; human rheumatoid arthritis patients; oral, 150 mg once daily, 4 weeks, regardless of relatedness).
`O=c1cc(-c2ccc(O)cc2)oc2c([C@@H]3OC[C@H](O)[C@H](O)[C@H]3O)c(O)c([C@@H]3O[C@H](CO)[C@@H](O)[C@H](O)[C@H]3O)c(O)c12` has a tissue concentration of 0.82 ng/g (UHPLC-MS/MS; C57BL/6J mouse, lungs; oral, dose not given).
Under “urinary magnesium excretion change”, `Cc1ccc([C@@H]2O[C@H](CO)[C@@H](O)[C@H](O)[C@H]2O)cc1Cc1ccc(-c2ccc(F)cc2)s1` is recorded as -13.7 mg (Japanese type 2 diabetes patients; 200 mg, day 3, 24 h urine collection; relative to: baseline).
`CNC(=O)c1ccc(-c2cnc3ncc(Cc4ccc5ncccc5c4)n3n2)cc1F` has an AUC(0-inf) of 5260 ng·h/mL (human, plasma; oral, 200 mg, geometric mean).
For `CC(C)c1c(C(=O)Nc2ccccc2O)c(-c2ccccc2)c(-c2ccc(F)cc2)n1CCC(O)CC(O)CC(=O)O` (centres unmarked), “chromatographic hydrophobicity index” read 94.9 (reverse phase LC, C18; acetonitrile gradient, 0.1% formic acid; converted from retention time; relative to: Valko CHI standards).
`C=CC(=O)N(C)CCOc1c(N)ncnc1-c1cc(F)cc(NC(=O)c2ccc(C3CC3)cc2F)c1C` has a Cmax of 5.86 ng/mL (human; oral, 5 mg single dose).
The intact complex of `O=C(O)CN1CCCN2CCN(Cc3ccccc3)CCCN(CC1)Cc1cccc(n1)C2` is reported as 99% (64Cu complex in rat plasma; 12 h, 37 °C).
`C[C@@H]1COCCN1c1cc(C2([S@](C)(=N)=O)CC2)nc(-c2cc[nH]c3nccc2-3)n1` gave a Nasopharyngitis incidence of 16.7% (Japanese advanced solid tumour patients; oral, 160 mg twice daily, any grade).
`COc1ccc([N+](=O)[O-])cc1NC(=O)C(C)Oc1ccccc1C` (centres unmarked) has a logD of 4.48 (octanol/buffer; pH 7.4).
`C[C@@]1(c2cc(NC(=O)c3ccc(C#N)cn3)ccc2F)C=CSC(N)=N1` has a dose-normalised Cmax of 5.62 ng/mL (elderly humans, both sexes, plasma; oral, 1 mg single dose).
For `CC[C@@]1(O)C(=O)OCc2c1cc1n(c2=O)Cc2cc3c(CN(C)C)c(O)ccc3nc2-1`, “cumulative urinary recovery” read 94.1 ± 29.5% (patients; intravenous, dose not given, 24 h, day 1).
`C/C=C/C[C@@H](C)C(=O)[C@H]1C(=O)N[C@@H](C(C)C)C(=O)N(C)CC(=O)N(C)[C@@H](CC(C)C)C(=O)N[C@@H](C(C)C)C(=O)N(C)[C@@H](CC(C)C)C(=O)N[C@@H](C)C(=O)N[C@H](C)C(=O)N(C)[C@@H](CC(C)C)C(=O)N(C)[C@@H](CC(C)C)C(=O)N(C)[C@@H](C(C)C)C(=O)N1C`: “total plasma concentration” 32400 ng/mL (Sprague Dawley rat, plasma; intravenous infusion, 8.0 mg/h/kg, 4 h, 4.5 h constant infusion).
`Cc1cc(-c2nnc(N)nc2-c2ccc(F)cc2)cc(Cl)n1`: “patients with immune-mediated AE” 0% (refers to: rash; post-IO other solid tumour patients; oral, 100 mg once daily, treatment-related, grade 2).
For `COc1ccc(NC(=O)CSc2nnc(-c3ccncc3)[nH]2)cc1`, the logD was 1.94 (octanol/buffer; pH 7.4).
`CCN1/C(=C/C(C)=O)Sc2ccc(F)cc21` — result for “heart rate change”: 100 ± 16.1% (cynomolgus monkey; oral, 30 mg/kg, 1 h post-dose; relative to: pre-dose).
For `c1ccc2c(c1)ccc1ccccc12`, the log K(PDMS-water) was 3.8 ± 0.01 (fresh water; 12 (unit not given), 20 °C, S30-2 sampler, 30 µm).
The tissue concentration of `CN(C(=O)n1cnc(-c2ccc[n+]([O-])c2)c1)[C@H]1CC[C@H](O)CC1` is reported as 7.2 ± 3.6 ng/g (rat, cerebellum; oral, 10 mg/kg single dose, 4 h).
`CC(=O)N/C(=C\c1ccc(Cc2nc3c([nH]2)C(=O)c2ccccc2C3=O)cc1)c1nc2c([nH]1)C(=O)c1ccccc1C2=O` gave a hydrodynamic radius of 25.6 nm (dynamic light scattering; buffer; 20 µM).
With `O=C(NCCN1CCCC1)c1cc(-c2ccc(CN3CCOCC3)cc2)nc2ccc(F)cc12` the freeze-thaw stability was 4 cycles (human whole blood; citric acid buffer 100 mM, 1/1 v/v).
`FC(F)(F)c1ccc(CNc2ccc(Cc3c[nH]c4ncc(Cl)cc34)cn2)cn1` — result for “adverse events, any”: 100% (patients with advanced solid tumours; oral, dose not given, phase Ib, all relationships).
`FC(F)(F)c1ccc(CNc2ccc(Cc3c[nH]c4ncc(Cl)cc34)cn2)cn1`: “treatment-related adverse events” 0% (refers to: Dyspepsia; patients with advanced solid tumours, non-TGCT cohort; oral, 1000 mg/day, any grade).
Under “grade 3-4 TEAE”, `CCCCOc1nc(N)c2c(n1)N(Cc1cccc(CN3CCCC3)c1)CC(=O)N2` is recorded as 0% (human; oral, 2 mg, drug interaction trial).
The CC50 of `C[C@@H](O[C@H]1OCCN(Cc2n[nH]c(=O)[nH]2)[C@H]1c1ccc(F)cc1)c1cc(C(F)(F)F)cc(C(F)(F)F)c1` is reported as over 50 µM (human cells, human).
For `C=CC(=O)N1CCC([C@@H]2CCNc3c(C(N)=O)c(-c4ccc(Oc5ccccc5)cc4)nn32)CC1`, “stability relative error” read -0.8% (rat plasma; 400 ng/mL, 21 days, -80 °C; relative to: nominal concentration).
For `C[C@@]1(C2CCCCC2)COC[C@@H](c2ccc(F)cc2Cl)N1`, the logD was over 4.7 (shake-flask, 1-octanol/buffer; pH 7.4).
Under “diastolic blood pressure change”, `CO[C@@H]1[C@H](OC(=O)N2CC(CCN3CCOCC3)C2)CC[C@]2(CO2)[C@H]1[C@@]1(C)O[C@@H]1CC=C(C)C` is recorded as -1.7 ± 6.5 mmHg (human; dose not given, day 28, multiple ascending dose; relative to: baseline).
For `Cc1cc(-c2nccc3c2ccn3CC(=O)Nc2ccc(-c3cnccn3)cn2)ccn1`, “general or administration site disorders” read 22.2% (human; 20 mg once daily, multiple ascending dose).
With `C[C@@H]1CCO[C@H]2Cn3cc(C(=O)NCc4ccc(F)cc4F)c(=O)c(O)c3C(=O)N12` the AUC(0-24) was 66600 ng·h/mL (population PK, post-hoc; children, 10 to <14 kg, plasma; oral, 20 mg dispersible tablet, steady state, geometric mean).
With `CCOc1c([C@H](C)n2nc(C)c3c(N)ncnc32)cc(Cl)c(F)c1[C@@H]1CNC(=O)C1` the Tmax median was 1 h (patients, monotherapy; oral, 20 mg once daily, cycle 1 day 1).
For `N#Cc1ccc2c(c1)[C@H]1CCCN(C(=O)c3ccc4[nH]cnc4c3)[C@H]1C2`, the SHBG level was 39.6 nmol/L (human males; 40 mg, day 7).
`CNC(=O)c1ccccc1Nc1cc(Nc2ccc(N3CCOCC3)cc2OC)ncc1C(F)(F)F` gave a solubility of 10 µg/mL (≈ 19.9 µM) (aqueous buffer; 24 h, pH 6.8).
With `CC(C)(C)c1ccc([C@@H]2COC[C@H](C3CCCC3)N2)cc1` the logD was over 4.7 (shake-flask, 1-octanol/buffer; pH 7.4).
For `C=CC(=O)N1CCC(c2ccc(C(N)=O)c(-c3ccc(Oc4ccccc4)cc3)n2)CC1`, “incidence of serious anal fistula” read 0.9% (CTCAE 4.03; patients with relapsed/refractory MCL; oral, dose not given).
The logD of `CCOC(=O)N1C[C@@H](c2cccnc2)N[C@@H](c2ccc(C(C)(C)C)cc2)C1` is reported as over 4.7 (shake-flask, 1-octanol/buffer; pH 7.4).
For `CC[C@H](C)CCCCC(=O)N[C@@H](CCN)C(=O)N[C@H](C(=O)N[C@@H](CCN)C(=O)N[C@H]1CCNC(=O)[C@H]([C@@H](C)O)NC(=O)[C@H](CCN)NC(=O)[C@H](CCN)NC(=O)[C@H](CC(C)C)NC(=O)[C@@H](Cc2ccccc2)NC(=O)[C@H](CCN)NC1=O)[C@@H](C)O`, “cumulative urinary excretion” read 0.884 mg (normal renal function subjects, urine; IV, 0.75 mg/kg, 0-24 h, arithmetic mean).
Under tissue concentration, `OCc1nc2ccc(NCc3ccc(C(F)(F)F)cc3)cc2[nH]1` is recorded as “not detected” (Balb/c mice, male, lungs; intravenous, 1 mg/kg, 48 h).
Under “subjects with TEAE”, `CC(C)(C(=O)N1CCOc2c(C#N)cncc2C1)C(F)F` is recorded as 0% (refers to: vessel puncture site hypoaesthesia; healthy humans, both sexes; oral, 30 mg single dose).
With `C=CC(=O)NC1CCN(c2ncc3ncnc(Nc4ccc(Oc5ccc6c(c5)ncn6C)c(C)c4)c3n2)CC1` the AUC0-inf ratio was 0.465 (healthy male volunteers, plasma; oral solution, 60 mg; relative to: compound over total radioactivity).
`NC(=O)N1c2ccccc2C=Cc2ccccc21`: “adverse events incidence” 13% (refers to: musculoskeletal disorders (SOC); human male; oral, dose not given, AEs, treatment-related, on drug, CTCAE).
Under “terminal phase AUC share”, `CC(C(=O)NCC(=O)NCC(CNC(=O)CNC(=O)C(C)N1CCN(CC(=O)[O-])CCN(CC(=O)[O-])CCN(CC(=O)[O-])CC1)(CNC(=O)CNC(=O)C(C)N1CCN(CC(=O)[O-])CCN(CC(=O)[O-])CCN(CC(=O)[O-])CC1)CNC(=O)CNC(=O)C(C)N1CCN(CC(=O)[O-])CCN(CC(=O)[O-])CCN(CC(=O)[O-])CC1)N1CCN(CC(=O)[O-])CCN(CC(=O)[O-])CCN(CC(=O)[O-])CC1.[Gd+3].[Gd+3].[Gd+3].[Gd+3]` (centres unmarked) is recorded as 0.459% (ICP-MS; female cynomolgus monkey, plasma; intravenous bolus, 0.1 mmol/kg, lanthanide mixture, geometric mean; relative to: AUC).
Under “log retention factor”, `CC[C@H](C)[C@H](NC(=O)[C@H](CO)NC(=O)[C@H](CCCNC(=N)N)NC(C)=O)C(=O)N[C@H]1CSSC[C@@H](C(=O)N[C@H](C(N)=O)[C@@H](C)O)NC(=O)[C@H](CCCNC(=N)N)NC(=O)[C@H](Cc2c[nH]cn2)NC(=O)[C@H](Cc2cccc3ccccc23)NC(=O)CNC(=O)[C@H](Cc2c[nH]c3ccccc23)NC(=O)[C@H](CC(=O)O)NC(=O)[C@H](CCC(N)=O)NC(=O)[C@H](Cc2cccc3ccccc23)NC(=O)[C@H](C(C)C)NC1=O` is recorded as 0.85 (isocratic RP-HPLC, C18; 32% acetonitrile, phosphate pH 7.4, 1% TFA; 25 °C).
For `C#C[C@]1(O)CC[C@H]2[C@@H]3CCc4cc(O)ccc4[C@H]3CC[C@@]21C`, the intrinsic clearance was 65.2 µL/min/mg (substrate depletion; Sprague-Dawley rat, female, liver S9; 3 µM, pH 7.4).
With `CC1CCN(S(=O)(=O)c2ccc(Cl)c(C(=O)Nc3ccc(C(=O)O)cc3)c2)CC1` the logD was 0.82 (octanol/buffer; pH 7.4).
The logD of `CCOC(=O)N1C[C@@H](c2cc(Cl)cc(Cl)c2)N[C@@H](c2ccc(N3CCCC3)cc2)C1` is reported as over 4.7 (shake-flask, 1-octanol/buffer; pH 7.4).
`O=C(COc1ccc(Cl)cc1)NC12CC(c3nnc([C@H]4C[C@@H](OC(F)(F)F)C4)o3)(C1)C2` — result for “participants with headache”: 71.4% (human both sexes; oral, 260 mg once daily, 14 days).
For `O=C1CCc2ccc(OCCCCN3CCN(c4cccc(Cl)c4Cl)CC3)cc2N1`, “adverse event incidence” read 4.5% (refers to: Tremor; patients, CYP2D6 normal metabolizers; dose not given, long-acting oral or depot).
For `CCc1cc(C(=O)NC)c2nccc(N3CCc4c(cc(Cn5ccnc5)cc4-c4cn(C)nc4C(F)(F)F)C3=O)c2c1`, “serum TG change” read -29.8% (Sprague Dawley rats; oral, 100 mg/kg twice daily, 7 days; relative to: vehicle).
